# Measurements of several laboratories.
# Numbered parts are unrelated; each lists some results of a single study.
# Chain of UniProt P00519 (whole entry, unmodified, looked up): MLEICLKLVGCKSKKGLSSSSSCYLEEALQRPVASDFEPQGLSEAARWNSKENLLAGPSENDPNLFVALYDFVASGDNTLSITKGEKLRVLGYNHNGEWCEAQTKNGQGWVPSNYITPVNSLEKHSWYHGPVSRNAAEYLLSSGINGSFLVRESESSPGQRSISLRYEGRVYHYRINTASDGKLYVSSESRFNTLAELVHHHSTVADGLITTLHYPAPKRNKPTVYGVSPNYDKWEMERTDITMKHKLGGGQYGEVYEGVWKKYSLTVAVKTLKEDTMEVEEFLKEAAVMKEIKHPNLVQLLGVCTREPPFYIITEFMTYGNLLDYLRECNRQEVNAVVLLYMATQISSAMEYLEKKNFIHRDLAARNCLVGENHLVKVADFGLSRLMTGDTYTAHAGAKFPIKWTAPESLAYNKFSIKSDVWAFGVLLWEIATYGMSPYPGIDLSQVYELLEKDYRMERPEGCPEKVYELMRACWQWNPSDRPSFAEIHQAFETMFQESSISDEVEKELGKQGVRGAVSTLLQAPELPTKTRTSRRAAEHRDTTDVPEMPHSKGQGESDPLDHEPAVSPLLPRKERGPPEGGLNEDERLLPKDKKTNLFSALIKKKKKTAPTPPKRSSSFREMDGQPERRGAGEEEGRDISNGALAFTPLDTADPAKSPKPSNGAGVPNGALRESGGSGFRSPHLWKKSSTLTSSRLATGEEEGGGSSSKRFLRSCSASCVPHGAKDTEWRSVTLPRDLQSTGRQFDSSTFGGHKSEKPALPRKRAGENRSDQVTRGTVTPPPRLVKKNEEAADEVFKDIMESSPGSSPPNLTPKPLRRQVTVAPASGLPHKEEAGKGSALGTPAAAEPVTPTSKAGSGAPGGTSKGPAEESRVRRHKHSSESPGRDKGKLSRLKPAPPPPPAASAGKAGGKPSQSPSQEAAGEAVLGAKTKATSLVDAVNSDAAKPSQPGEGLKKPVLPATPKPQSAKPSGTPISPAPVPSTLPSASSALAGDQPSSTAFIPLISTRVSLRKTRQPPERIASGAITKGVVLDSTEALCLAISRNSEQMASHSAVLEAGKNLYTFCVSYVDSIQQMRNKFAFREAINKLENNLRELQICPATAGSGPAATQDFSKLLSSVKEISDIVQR
# Chain of UniProt O14730 (whole entry, looked up): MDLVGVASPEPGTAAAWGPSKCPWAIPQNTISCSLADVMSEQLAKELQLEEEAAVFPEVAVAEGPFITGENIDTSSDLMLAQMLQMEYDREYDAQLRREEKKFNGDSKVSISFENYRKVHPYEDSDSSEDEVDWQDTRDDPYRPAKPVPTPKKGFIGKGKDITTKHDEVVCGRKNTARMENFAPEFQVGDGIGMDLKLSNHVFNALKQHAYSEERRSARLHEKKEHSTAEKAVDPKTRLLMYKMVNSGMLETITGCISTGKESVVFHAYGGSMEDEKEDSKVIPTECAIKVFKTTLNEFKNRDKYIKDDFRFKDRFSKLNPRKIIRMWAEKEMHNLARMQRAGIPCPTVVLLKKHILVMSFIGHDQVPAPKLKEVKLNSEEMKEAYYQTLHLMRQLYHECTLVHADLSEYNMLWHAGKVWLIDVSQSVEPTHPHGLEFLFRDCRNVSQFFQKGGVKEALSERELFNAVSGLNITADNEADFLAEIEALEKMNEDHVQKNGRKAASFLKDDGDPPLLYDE
# Chain of UniProt Q8IWQ3 (whole entry, looked up): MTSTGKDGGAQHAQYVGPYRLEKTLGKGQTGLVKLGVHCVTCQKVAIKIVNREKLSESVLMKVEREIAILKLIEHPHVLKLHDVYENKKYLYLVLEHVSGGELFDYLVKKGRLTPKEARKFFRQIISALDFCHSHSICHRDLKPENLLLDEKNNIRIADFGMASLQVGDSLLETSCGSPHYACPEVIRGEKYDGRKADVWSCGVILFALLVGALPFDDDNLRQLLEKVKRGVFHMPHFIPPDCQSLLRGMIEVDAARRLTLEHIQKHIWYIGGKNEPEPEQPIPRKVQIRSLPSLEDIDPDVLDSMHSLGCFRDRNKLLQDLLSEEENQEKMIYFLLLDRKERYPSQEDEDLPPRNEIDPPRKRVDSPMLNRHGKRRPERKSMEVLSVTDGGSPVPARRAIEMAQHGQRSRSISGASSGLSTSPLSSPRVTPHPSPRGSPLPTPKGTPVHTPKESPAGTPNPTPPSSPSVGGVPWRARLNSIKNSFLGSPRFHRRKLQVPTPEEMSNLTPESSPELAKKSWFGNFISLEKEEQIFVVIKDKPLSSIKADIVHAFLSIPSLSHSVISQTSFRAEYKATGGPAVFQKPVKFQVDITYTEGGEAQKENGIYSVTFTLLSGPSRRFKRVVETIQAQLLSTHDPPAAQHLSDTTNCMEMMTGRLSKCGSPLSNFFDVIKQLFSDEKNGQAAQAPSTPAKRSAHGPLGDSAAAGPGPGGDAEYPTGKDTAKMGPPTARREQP
# Chain of UniProt Q14680 (whole entry, looked up): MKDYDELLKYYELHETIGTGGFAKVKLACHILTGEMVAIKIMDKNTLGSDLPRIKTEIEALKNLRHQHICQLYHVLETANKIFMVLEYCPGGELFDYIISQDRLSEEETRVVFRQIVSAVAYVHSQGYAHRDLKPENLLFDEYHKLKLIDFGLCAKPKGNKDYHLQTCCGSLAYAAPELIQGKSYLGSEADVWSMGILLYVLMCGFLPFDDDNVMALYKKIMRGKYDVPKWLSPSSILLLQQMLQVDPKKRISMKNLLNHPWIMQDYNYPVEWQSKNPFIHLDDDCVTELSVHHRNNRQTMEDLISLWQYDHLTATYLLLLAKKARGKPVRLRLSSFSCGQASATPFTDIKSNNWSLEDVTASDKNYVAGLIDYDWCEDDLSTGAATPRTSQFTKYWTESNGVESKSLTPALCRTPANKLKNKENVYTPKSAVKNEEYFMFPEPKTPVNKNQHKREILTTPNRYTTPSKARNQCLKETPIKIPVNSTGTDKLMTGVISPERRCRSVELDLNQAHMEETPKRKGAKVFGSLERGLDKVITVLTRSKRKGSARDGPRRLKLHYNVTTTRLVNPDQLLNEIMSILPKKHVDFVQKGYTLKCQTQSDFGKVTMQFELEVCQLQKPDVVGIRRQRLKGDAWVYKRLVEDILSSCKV
# Chain of UniProt P07332 (whole entry, looked up): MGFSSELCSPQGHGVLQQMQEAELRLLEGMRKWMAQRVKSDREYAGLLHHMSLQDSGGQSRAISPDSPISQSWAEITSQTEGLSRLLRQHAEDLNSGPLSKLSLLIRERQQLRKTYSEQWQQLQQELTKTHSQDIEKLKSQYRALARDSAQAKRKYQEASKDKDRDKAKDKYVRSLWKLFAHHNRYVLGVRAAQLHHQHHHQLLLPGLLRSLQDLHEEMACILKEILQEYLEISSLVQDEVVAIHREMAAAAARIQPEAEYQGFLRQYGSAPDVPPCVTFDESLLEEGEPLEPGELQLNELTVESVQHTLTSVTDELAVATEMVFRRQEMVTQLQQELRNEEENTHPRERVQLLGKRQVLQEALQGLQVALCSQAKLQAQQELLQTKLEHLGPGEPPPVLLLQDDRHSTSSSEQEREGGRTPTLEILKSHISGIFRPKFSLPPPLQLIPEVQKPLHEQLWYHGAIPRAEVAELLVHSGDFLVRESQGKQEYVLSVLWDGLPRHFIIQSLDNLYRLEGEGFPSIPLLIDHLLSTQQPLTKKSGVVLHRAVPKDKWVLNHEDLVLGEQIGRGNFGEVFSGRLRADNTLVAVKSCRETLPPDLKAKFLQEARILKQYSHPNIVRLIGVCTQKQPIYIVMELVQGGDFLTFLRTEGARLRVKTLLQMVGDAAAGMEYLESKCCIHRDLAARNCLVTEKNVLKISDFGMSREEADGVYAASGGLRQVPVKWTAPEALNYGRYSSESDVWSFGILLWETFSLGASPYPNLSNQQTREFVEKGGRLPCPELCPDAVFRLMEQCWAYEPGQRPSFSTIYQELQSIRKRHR
# Chain of UniProt O96013 (whole entry, looked up): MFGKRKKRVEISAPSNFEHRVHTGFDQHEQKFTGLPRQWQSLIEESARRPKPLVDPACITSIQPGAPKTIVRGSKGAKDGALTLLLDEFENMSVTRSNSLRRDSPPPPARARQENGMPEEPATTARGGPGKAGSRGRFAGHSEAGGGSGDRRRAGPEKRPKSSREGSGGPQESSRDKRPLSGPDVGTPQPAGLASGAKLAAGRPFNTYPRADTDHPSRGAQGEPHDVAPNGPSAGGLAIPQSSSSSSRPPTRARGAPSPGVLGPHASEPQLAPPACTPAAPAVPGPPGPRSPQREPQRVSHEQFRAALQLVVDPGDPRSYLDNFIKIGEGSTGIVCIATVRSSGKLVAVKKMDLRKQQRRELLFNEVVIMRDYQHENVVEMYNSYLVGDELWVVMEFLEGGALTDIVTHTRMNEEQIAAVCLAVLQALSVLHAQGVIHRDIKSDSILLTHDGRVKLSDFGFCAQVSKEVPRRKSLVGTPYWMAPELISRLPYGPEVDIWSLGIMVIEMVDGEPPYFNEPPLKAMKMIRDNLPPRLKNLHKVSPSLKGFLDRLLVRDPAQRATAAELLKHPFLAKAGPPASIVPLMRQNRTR
# Chain of UniProt Q00535 (whole entry, looked up): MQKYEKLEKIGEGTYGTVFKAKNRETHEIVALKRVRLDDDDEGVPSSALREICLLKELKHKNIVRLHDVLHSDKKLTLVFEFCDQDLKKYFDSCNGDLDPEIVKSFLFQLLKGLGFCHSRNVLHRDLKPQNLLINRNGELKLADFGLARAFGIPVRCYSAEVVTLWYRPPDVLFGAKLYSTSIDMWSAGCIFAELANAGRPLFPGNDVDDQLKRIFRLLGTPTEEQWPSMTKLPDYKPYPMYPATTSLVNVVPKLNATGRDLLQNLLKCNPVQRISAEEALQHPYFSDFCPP
# Chain of UniProt Q5BJF2 (whole entry, looked up): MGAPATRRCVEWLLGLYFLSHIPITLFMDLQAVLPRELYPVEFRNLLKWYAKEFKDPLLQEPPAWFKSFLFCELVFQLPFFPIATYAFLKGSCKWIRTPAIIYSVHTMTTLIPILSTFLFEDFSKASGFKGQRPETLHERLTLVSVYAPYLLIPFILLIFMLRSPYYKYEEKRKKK

# Block 1
# SMILES: O=C(O)c1ccc2c3c1cccc3c(=O)n1c3ccccc3nc21
# Read-out: enzyme activity
# Mode: inhibitor
# Tested at: 0.5 µM
target,reference,remaining activity [%]
"PIM1 (Homo sapiens, UniProt P11309)",control,59.5
"FES (Homo sapiens, UniProt P07332)",control,98.2
"ACVRL1 (Homo sapiens, UniProt P37023)",control,103
"EPHB3 (Homo sapiens, UniProt P54753)",control,94.5
"MARK1 (Homo sapiens, UniProt Q9P0L2)",control,79.5
"ARAF (Homo sapiens, UniProt P10398)",,101
"Cyclin-dependent kinase 5, with p35 (CDK5, Homo sapiens, UniProt Q00535)",control,88
"MELK (Homo sapiens, UniProt Q14680)",control,97
"PAK4 (Homo sapiens, UniProt O96013)",control,114
"BRSK2 (Homo sapiens, UniProt Q8IWQ3)",control,90.4
"ERBB2 (Homo sapiens, UniProt P04626)",control,99.7

# Block 2
# SMILES: O=C(Nc1ccccc1)Nc1cccc(Oc2ccc3nccn3n2)c1
# Tested at: 1 µM
target,method,item,notes,reference,remaining binding [%]
"CDK2 (Homo sapiens, UniProt P24941)",competitive binding panel,,,vehicle,100
"NEK2 (Homo sapiens, UniProt P51955)",competitive binding panel,,,vehicle,100
"RIOK3 (Homo sapiens, UniProt O14730)",competitive binding panel,,,vehicle,85
"MAPK13 (Homo sapiens, UniProt O15264)",competitive binding,,p38-delta,,100
"NIM1K (Homo sapiens, UniProt Q8IY84)",competitive binding panel,NIM1,,vehicle,81
"RIPK2 (Homo sapiens, UniProt O43353)",competitive binding panel,,,vehicle,100

# Block 3
# Cell line: A-375
# Tested at: 100 µM
# Time: 36 h
Structure (SMILES),viability [%]
C[C@@H]1O[C@@H](OC[C@H]2O[C@@H](Oc3c(-c4ccc(O)c(O)c4)oc4cc(O)cc(O)c4c3=O)[C@H](O)[C@@H](O)[C@@H]2O)[C@H](O)[C@H](O)[C@H]1O,105
NS(=O)(=O)Cc1noc2ccccc12,57.6
CC(=O)[C@@]1(O)CC[C@H]2[C@@H]3C[C@H](C)C4=CC(=O)C=C[C@]4(C)[C@@]3(F)[C@@H](O)C[C@@]21C,98.5
CSCC1CN(/N=C/c2ccc([N+](=O)[O-])o2)C(=O)O1 (stereo not shown),32.9
Cc1cc(N)c2ccccc2[n+]1CCCCCCCCCC[n+]1c(C)cc(N)c2ccccc21,33.7
CC(=O)Nc1ccc(CC(=O)O)cc1,111
OC[C@H]1O[C@@H](O[C@@H]2[C@@H](CO)OC(O)(CO)[C@H]2O)[C@H](O)[C@@H](O)[C@H]1O (mixture of isomers),97.4

# Single results of other studies
SMILES,target,read-out,method,tested at,quantity,value
C[C@H](NC(=O)c1cnc2n1[C@](C)(Cc1ccc(C#N)cc1)C(=O)N2c1cc(Cl)c(F)c(Cl)c1)C(=O)NC1(c2ccccn2)CC1,"HTR3A (Homo sapiens, UniProt P46098)",binding,radioligand binding,10 µM,inhibition,-2.51%
CN(C)c1ncnc(-c2ccc3nc(Nc4cc(CN5CCN(C(=O)CC(F)(F)F)CC5)ccn4)[nH]c3c2)c1Cl,"IKBKE (Homo sapiens, UniProt Q14164)",target engagement in cells,BRET,,IC50,> 27 µM
Cn1nc(C(F)(F)F)cc1-c1cnc(N2CCc3cc(S(=O)(=O)Nc4c(F)cc(Cl)cc4F)cc(N4CCCC4=O)c32)nc1,"TMEM97 (Homo sapiens, UniProt Q5BJF2)",binding,radioligand binding,,Ki,> 10 µM
C[C@H](NC(=O)Nc1cc2[nH]ncc2c(CO)n1)c1ccccn1,"Tyrosine-protein kinase ABL1, non-phosphorylated (ABL1, Homo sapiens, UniProt P00519, F317I)",binding,competition with immobilised ligand,1 µM,remaining binding,100%

# Some of these lines once more (block 2):
target,method,item,notes,reference,remaining binding [%]
"MAPK13 (Homo sapiens, UniProt O15264)",competitive binding,,p38-delta,,100
"CDK2 (Homo sapiens, UniProt P24941)",competitive binding panel,,,vehicle,100
"RIOK3 (Homo sapiens, UniProt O14730)",competitive binding panel,,,vehicle,85
"NIM1K (Homo sapiens, UniProt Q8IY84)",competitive binding panel,NIM1,,vehicle,81
